Assay results collected from several papers.
Several values in a cell are separate wells, animals, samples, runs or records.
Cell line: HEK293

For `CCCCCCOc1cc(NC(=O)c2ccc(OC)cc2)ccc1NC(=N)N`, the IC50 was > 500 µM (cell growth, MTT; 48 h).
The IC50 of `COc1cc(NC(=O)c2cccc(C(F)(F)F)c2)ccc1S(N)(=O)=O` is reported as > 100 µM (cell viability, MTT; 48 h).
For `CC(=O)[C@@H]1CCCN1C(=O)[C@@H]1CCCN1C(=O)OC(C)(C)C`, the IC50 was 5930 µM and 5140 µM and 5260 µM (cell growth, sulforhodamine B).
The IC50 of `COc1cccc2c1C(=O)c1c(O)c3c(c(O)c1C2=O)C[C@@](O)(C(=O)CO)C[C@@H]3O[C@H]1C[C@H](N)[C@H](O)[C@H](C)O1` is reported as 9.34 µg/mL (MTT; 24 h).
For `COc1ccc(C(=O)Nc2ccc(NC(=N)N)c(OCc3cc(OC)ccc3OC)c2)cc1`, the IC50 was > 500 µM (cell growth, MTT; 48 h).
The IC50 of `COc1nc(OCc2cccc(-c3ccccc3)c2C)ccc1CNCCNC(C)=O` is reported as 5.2 µM (cell viability, MTT).
`Cc1ccc(C)c(COc2cc(NC(=O)c3cc(C(F)(F)F)cc(C(F)(F)F)c3)ccc2NC(=N)N)c1` gave an IC50 of > 500 µM (cell growth, MTT; 48 h).
The IC50 of `COc1cc(NC(=O)c2ccccn2)ccc1S(N)(=O)=O` is reported as > 100 µM (cell viability, MTT; 48 h).
`CN(c1ccc(NC(=O)c2ccc(C(=N)N)cc2)cc1OCc1ccc(C(F)(F)F)cc1)S(=O)(=O)Cc1ccccc1` has an IC50 of > 500 µM (cell growth, MTT; 48 h).
With `COc1cc(NC(=O)c2ccc([N+](=O)[O-])cc2)ccc1S(N)(=O)=O` the IC50 was > 100 µM (cell viability, MTT; 48 h).
`CC(=O)O[C@@]12CO[C@@H]1C[C@H](O)[C@@]1(C)C(=O)[C@H](O)C3=C(C)[C@@H](OC(=O)[C@H](O)[C@@H](NC(=O)OC(C)(C)C)c4ccccc4)C[C@@](O)([C@@H](OC(=O)c4ccccc4)[C@H]21)C3(C)C` has an IC50 of > 50 µg/mL (MTT; 24 h).
The IC50 of `COc1cc(NC(=O)c2cccc(C)c2)ccc1S(N)(=O)=O` is reported as > 100 µM (cell viability, MTT; 48 h).
With `C#CCCCC[C@H](C)C[C@@H](C)C(=O)O` the IC50 was 232 µM and 329 µM and 216 µM (cell growth, sulforhodamine B).
`COc1cc(NC(=O)c2ccc(Cl)cc2)ccc1S(N)(=O)=O` has an IC50 of > 100 µM (cell viability, MTT; 48 h).
For `CC(O)[C@@H]1CCCN1C(=O)[C@@H]1CCCN1C(=O)OC(C)(C)C` (mixture of isomers), the IC50 was 3540 µM and 3440 µM and 3190 µM (cell growth, sulforhodamine B).

Repeated from above:
For `CCCCCCOc1cc(NC(=O)c2ccc(OC)cc2)ccc1NC(=N)N`, the IC50 was > 500 µM (cell growth, MTT; 48 h).
